Published values collected from several papers.
Lines come from different studies, so protocols differ.
Chain of UniProt O96017 (whole entry, looked up): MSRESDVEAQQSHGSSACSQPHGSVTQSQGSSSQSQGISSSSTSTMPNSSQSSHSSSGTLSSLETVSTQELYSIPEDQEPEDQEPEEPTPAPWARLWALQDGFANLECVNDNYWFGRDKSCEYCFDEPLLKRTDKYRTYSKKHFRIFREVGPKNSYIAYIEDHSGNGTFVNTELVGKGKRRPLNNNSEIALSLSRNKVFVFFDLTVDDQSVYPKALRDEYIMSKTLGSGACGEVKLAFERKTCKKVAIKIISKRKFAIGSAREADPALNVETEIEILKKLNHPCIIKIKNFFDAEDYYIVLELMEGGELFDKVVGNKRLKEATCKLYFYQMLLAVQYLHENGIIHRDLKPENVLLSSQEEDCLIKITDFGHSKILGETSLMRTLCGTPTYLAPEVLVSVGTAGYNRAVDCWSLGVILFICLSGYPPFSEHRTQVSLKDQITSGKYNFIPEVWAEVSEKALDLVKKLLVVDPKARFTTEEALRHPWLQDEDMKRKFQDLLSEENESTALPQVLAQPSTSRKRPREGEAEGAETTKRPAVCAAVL
Chain of UniProt O15075 (whole entry, looked up): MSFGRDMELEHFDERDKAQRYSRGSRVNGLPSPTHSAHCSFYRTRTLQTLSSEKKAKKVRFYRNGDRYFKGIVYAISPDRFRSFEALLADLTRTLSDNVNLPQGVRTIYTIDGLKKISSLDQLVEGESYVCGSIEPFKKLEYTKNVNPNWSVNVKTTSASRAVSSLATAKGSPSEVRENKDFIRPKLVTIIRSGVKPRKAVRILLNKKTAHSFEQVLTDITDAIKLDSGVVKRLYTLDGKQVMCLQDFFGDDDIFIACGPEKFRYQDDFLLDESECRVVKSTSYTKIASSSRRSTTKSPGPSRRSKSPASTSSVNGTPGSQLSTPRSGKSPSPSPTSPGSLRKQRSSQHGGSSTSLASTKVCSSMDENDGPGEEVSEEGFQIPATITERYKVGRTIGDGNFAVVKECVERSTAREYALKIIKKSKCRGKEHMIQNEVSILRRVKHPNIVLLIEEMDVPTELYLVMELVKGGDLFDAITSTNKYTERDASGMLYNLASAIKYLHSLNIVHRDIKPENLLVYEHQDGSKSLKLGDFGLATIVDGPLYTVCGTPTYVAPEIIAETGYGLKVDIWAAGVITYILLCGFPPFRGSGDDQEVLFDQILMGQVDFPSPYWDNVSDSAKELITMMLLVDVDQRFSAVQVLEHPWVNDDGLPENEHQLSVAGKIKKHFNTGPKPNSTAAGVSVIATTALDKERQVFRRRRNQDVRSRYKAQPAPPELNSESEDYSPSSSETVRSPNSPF

Compound	tested on	assay	setting	endpoint	value
COc1ccc2c(c1)c(=O)c(C(=O)N/N=C/c1ccc([N+](=O)[O-])s1)cn2Cc1ccccc1	HEK293	cell growth or viability, resazurin	48 h	CC50	> 20 µM
COc1cc(-c2cncc3c2CN(C)Cc2cc(N4CCNCC4)ccc2-3)cc(OC)c1OC	DCLK1 (Homo sapiens, UniProt O15075)	enzyme activity, inhibitor	1 µM	remaining activity	101%
Nc1ccn([C@@H]2O[C@H](CO)[C@@H](O)C2(F)F)c(=O)n1	HEK293	cell growth or viability, MTT	2.5 µg/mL, 24 h	viability	51.3%
Fc1cc(F)c(-c2c(Cl)nc(-c3cccs3)nc2N2CCCC2)c(F)c1	HEK293	cell growth or viability, resazurin	48 h	CC50	28.2 µM
CCCc1cc(=O)oc2cc(OCc3cc(=O)c(O)co3)ccc12	HEK293	cell growth or viability, CCK-8	4 µM, 24 h	viability	101%
Fc1cc(F)c(-c2c(Cl)nc(-c3cccs3)nc2NCc2ccccc2)c(F)c1	HEK293	cell growth or viability, resazurin	48 h	CC50	> 50 µM
CNc1ncc2c(/C=C/C(=O)N3CCC(OC)CC3)nn(Cc3cccc(C(F)(F)F)c3)c2n1	CHEK2 (Homo sapiens, UniProt O96017)	enzyme activity, inhibitor, radiometric	1 µM	remaining activity	109%
Cc1ccc(S(=O)(=O)[N](Nc2ccc([N+](=O)[O-])cc2[N+](=O)[O-])[Sn]([Cl])[Cl])cc1	HEK293	cell growth or viability, MTT	62.5 µg/mL	viability	84.3%
CC(C)[C@@H](C)Nc1nc(-c2cccs2)nc(Cl)c1-c1c(F)cc(N)cc1F	HEK293	cell growth or viability, resazurin	48 h	CC50	34 µM
Cc1cc(NCCc2ccccc2)nc(NC(=N)Nc2ccc(Cl)cc2)n1	HEK293	cell growth or viability, MTT	24 h	CC50	29.6 µM
Cc1ccc(S(=O)(=O)NNc2ccc([N+](=O)[O-])cc2[N+](=O)[O-])cc1	HEK293	cell growth or viability, MTT	31.25 µg/mL	viability	85.4%
Cc1ccc(Cn2cc(C(=O)N/N=C/c3ccc([N+](=O)[O-])s3)c(=O)c3cc(Br)ccc32)cc1	HEK293	cell growth or viability, resazurin	48 h	CC50	> 20 µM
Fc1cc(F)c(-c2c(Cl)nc(-c3cccs3)nc2N2CCOCC2)c(F)c1	HEK293	cell growth or viability, resazurin	48 h	CC50	22.7 µM
Cc1onc(-c2ccccc2)c1-c1ccc(S(N)(=O)=O)cc1	HEK293	cell growth or viability, MTT	24 h	CC50	> 200 µM
O=C(N/N=C/c1ccc([N+](=O)[O-])o1)c1cn(Cc2ccccc2)c2ccc(Oc3ccccc3)cc2c1=O	HEK293	cell growth or viability, resazurin	48 h	CC50	> 20 µM
CO[C@H]1/C=C/O[C@@]2(C)Oc3c(C)c(O)c4c(O)c(c(/C=N/N5CCN(C)CC5)c(O)c4c3C2=O)NC(=O)/C(C)=C\C=C[C@H](C)[C@H](O)[C@@H](C)[C@@H](O)[C@@H](C)[C@H](OC(C)=O)[C@@H]1C	HEK293	cell growth or viability, MTT	24 h	CC50	> 400 µM
CS(=O)(=O)CCNc1nc(-c2cccs2)nc(Cl)c1-c1c(F)cc(F)cc1F	HEK293	cell growth or viability, resazurin	48 h	CC50	10.4 µM

Some of these lines once more:
Compound	tested on	assay	setting	endpoint	value
Nc1ccn([C@@H]2O[C@H](CO)[C@@H](O)C2(F)F)c(=O)n1	HEK293	cell growth or viability, MTT	2.5 µg/mL, 24 h	viability	51.3%
CC(C)[C@@H](C)Nc1nc(-c2cccs2)nc(Cl)c1-c1c(F)cc(N)cc1F	HEK293	cell growth or viability, resazurin	48 h	CC50	34 µM
